# Assay results from different studies.
# Parts stem from different laboratories: compare values within a part only.

# Series 1 — method: RNA Bind-n-Seq; form: RNA; sample: in vitro; tested at: 1 µM; setting: whole 134-nt RNA, ends assumed; with: 150 mM KCl; relative to: input library; reading: higher = stronger binding
# Target: Ras GTPase-activating protein-binding protein 1, C-terminal RGG region (G3BP1, Homo sapiens, UniProt Q13283)
# Chain of UniProt Q13283 (whole entry, looked up): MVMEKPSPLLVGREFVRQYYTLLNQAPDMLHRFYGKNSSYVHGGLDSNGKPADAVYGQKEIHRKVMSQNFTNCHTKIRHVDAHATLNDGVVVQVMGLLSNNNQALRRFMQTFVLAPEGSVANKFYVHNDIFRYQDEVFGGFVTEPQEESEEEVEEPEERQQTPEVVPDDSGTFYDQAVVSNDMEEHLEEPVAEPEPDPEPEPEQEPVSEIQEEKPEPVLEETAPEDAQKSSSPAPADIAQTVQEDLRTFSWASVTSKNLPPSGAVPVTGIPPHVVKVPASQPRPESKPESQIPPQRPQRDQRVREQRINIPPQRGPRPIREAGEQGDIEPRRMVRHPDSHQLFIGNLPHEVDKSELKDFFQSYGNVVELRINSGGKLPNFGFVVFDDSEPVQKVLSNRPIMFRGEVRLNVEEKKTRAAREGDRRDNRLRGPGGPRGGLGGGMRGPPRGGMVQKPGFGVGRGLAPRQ
Strand,log2 enrichment
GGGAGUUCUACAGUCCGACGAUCUCAAGUCCUGUGCUACACAUCGUAUGUACCGAAUCGGCCCGGCCCGGGCCCGGGAAAGUAUUAUGUUACGCCGUUCGGAUCUGCACUUCCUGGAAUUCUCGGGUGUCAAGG,-1.23
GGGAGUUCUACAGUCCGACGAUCUCCUGUGCUACACAUCGUAUGUACCGAAUCGGGGUUUUUUUGGGGUUUUUGGGGAGGGGAAAGUAUUAUGUUACGCCGUUCGGAUCUGCAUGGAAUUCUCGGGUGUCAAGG,1.16
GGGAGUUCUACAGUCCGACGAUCGUCCUGUGCUACACAUCGUAUGUACCGAAUCGGGGAAAAAGGGGUUUUUGGGGAGGGGAAAGUAUUAUGUUACGCCGUUCGGAUCUGCACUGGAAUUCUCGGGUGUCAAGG,1.58
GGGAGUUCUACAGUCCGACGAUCAGUCCUGUGCUACACAUCGUAUGUACCGAAUCGGGCCCCCGGGCCCCCGGGCCCCCGGAAAGUAUUAUGUUACGCCGUUCGGAUCUGCACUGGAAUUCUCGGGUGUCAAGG,-2
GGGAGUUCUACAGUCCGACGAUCUUUGAUGACAGUCUGCAGGAGCUGCCUGGUGAAGUACCUGGAGGAGAACAACACCUGCCCCACCUGCAGGAUUGUGAUCCACCAGAGCCAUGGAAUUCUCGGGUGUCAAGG,-0.836
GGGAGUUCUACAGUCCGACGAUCAGUCCUGUGCUACACAUCGUAUGUACCGAAUCAAACCCCCCCAAACCCAAACCCAAAAAAGUAUUAUGUUACGCCGUUCGGAUCUGCACUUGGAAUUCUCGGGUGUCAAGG,-1.07

# Series 2 — method: universal PBM; form: double-stranded DNA, one strand shown; sample: in vitro; tested at: not given; reading: higher = stronger binding
# Target: Sal-like protein 4, full length isoform B (SALL4, Homo sapiens, UniProt Q9UJQ4-2, residues 1-616)
# Setting: 8-mer, flanks averaged, mean of replicates
# Target sequence (chain): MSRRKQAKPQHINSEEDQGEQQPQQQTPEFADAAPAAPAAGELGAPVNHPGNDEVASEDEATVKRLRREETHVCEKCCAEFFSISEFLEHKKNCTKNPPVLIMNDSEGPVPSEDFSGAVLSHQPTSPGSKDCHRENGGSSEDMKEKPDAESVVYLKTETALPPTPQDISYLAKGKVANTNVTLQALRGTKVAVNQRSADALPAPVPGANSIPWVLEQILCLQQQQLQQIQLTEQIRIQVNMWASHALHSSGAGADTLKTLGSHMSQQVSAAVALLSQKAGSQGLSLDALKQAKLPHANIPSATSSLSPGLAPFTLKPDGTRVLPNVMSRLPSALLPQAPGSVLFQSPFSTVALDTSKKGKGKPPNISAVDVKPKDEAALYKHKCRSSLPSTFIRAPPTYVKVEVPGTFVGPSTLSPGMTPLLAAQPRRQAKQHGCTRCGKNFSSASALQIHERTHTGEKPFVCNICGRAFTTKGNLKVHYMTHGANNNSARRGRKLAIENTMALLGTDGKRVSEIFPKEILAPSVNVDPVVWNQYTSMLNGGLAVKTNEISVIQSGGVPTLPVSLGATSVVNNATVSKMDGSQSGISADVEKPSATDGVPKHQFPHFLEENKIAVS
Strand,E-score
GCCGCTAA,-0.179
CACATCAC,-0.0172
CGGGTAGA,-0.119
ATGTGATA,0.23
GCTGGTTA,0.0171
TCATCCGA,0.00229
ACCGGAGG,-0.184
GACATCCC,-0.231
CAAGGACA,-0.0207
TCGGCCCA,-0.287
AATAAGGA,0.15
GTGCCTTA,-0.0107
CTTCAGGC,-0.201
GCCCTAAC,-0.00389

# Series 3 — method: protein binding microarray; form: double-stranded DNA, one strand shown; sample: in vitro; tested at: not given; relative to: not given; reading: higher = stronger binding
# Target: Histone acetyltransferase KAT6A, winged helix 2, GST fusion (KAT6A, Homo sapiens, UniProt Q92794, residues 85-181)
# Setting: 8-mer, flanks averaged, mean of 2 arrays, mostly near background
# Construct (chain): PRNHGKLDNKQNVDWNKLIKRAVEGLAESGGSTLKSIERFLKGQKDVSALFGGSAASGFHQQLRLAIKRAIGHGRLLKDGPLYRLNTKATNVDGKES
Strand,E-score
AGACCGCT,0.0658
CCCATGCG,-0.0644
GCGTGGAC,-0.0109
CCCCTGGA,0.00844
CTTCGCGC,0.247
CAACTGCC,0.0924
AGAAGGCT,-0.29
AAGCGGCG,0.164
AGAGCTGG,0.00969
AACGGTCC,-0.1

# Series 4 — method: RNA Bind-n-Seq; form: RNA; sample: in vitro; tested at: 365 nM; relative to: no-protein control; reading: higher = stronger binding
# Target: RNA binding protein fox-1 homolog 2, RRM domain, GST-SBP tag (RBFOX2, Homo sapiens, UniProt O43251-10, residues 100-194)
# Setting: natural RNA segment, single round, ends assumed
# Construct (chain): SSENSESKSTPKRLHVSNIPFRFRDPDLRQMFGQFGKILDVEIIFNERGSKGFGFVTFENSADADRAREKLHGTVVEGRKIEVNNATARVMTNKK
Strand,RBNS enrichment (R)
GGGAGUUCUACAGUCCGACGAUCUACAUUUAUUUCCCCCUGAUGUGGAAAAUCUAAAAGCACAGAAUGAUGGGAACAAGAGUAUGAUGUGCUUGGUAUCUGGCUUUUCCCCAAGCAGUCGAUGUCAAGGUUACUGGAAUUCUCGGGUGCCAA,2.82
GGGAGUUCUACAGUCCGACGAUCGACUGGUCUUCAGGAGUCAGUAGACCACCGGACCAGGUGUCAGCAUCCACUCCAAGCCAUGCUAGGAAUCUGCCCCCUGCCGGGUUCAGCUCUUUAAGGUGCCUCUUCAGUGGAAUUCUCGGGUGCCAA,0.255
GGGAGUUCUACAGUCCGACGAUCCAGGCUCUUGUCUGAACACCGCAGCCCCUCCUUCGCUCCUUCCAGAGCUCAGCAUGUCACGGCAAGGACUGCCGCAUUGGUGAUGGAGGGCCAGCUGAGGGGAAGUUGCUUGGAAUUCUCGGGUGCCAA,19.5
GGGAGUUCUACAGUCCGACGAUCAGCAUAUCUGUGACCAUCUGCUCCUGAUAACCACUGUCCAGCAUCUCUUCGGGCCAGCCCGGUGCCACGGUCACAUGGGGGAAGACUUCAGCCACAGCUGUGAGCAGCUCUGGAAUUCUCGGGUGCCAA,0.731
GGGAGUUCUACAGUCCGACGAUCUGUUGGUGAACAAAUGGCCUUUAUUAAGAAAUGGCUGGCUCAGGGUAAGGUCCGAUUCCUACCAGGAAGUGCUUGCUGCUUCUUUGAUUAUGACUGGUUUGGGGUGGGGGUGGAAUUCUCGGGUGCCAA,0.457
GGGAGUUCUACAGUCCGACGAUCGCAGCUUUUUAUGGUGUUUAAUCUAAUACACUUAAGCUGCAGUCCCAAAACUAGGGGUCCGUCAGUCUUGGAGACUAUGGGAGCCUCUGCACCCAGGGAAAAUGUUACCCUGGAAUUCUCGGGUGCCAA,0.631
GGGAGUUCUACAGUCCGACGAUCAACAUUUUUGGAGGUAGCUUCGUGCAUCAUAAACAACUUUCGUGCUCGUGUCUGACUCGAGCGGUAUCAGAACAGGGCUGGGAUGGAGUCUUCGUGUUUUGCACCCUGUGUGGAAUUCUCGGGUGCCAA,1.91
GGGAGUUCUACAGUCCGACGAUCCUUAUCAAAAUACAGAUCAUUAUUGCAUAUAUGCAAAUUCUGUUUUAUUUUAUCCCUAAUAACAGAAGUCUCCCUUCCAUGGUUUUAGCGUUGCCUUUUUAAAAAGGCACUGGAAUUCUCGGGUGCCAA,0.491
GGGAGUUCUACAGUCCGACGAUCGUGGCCACUGAAGUCUCAGGUGCAGAUGGGUUCUCCCGGGAACCCAGGGUUGGAUCCAUAAGGCUUUAAUCUGGCCCUGAAAGCAGUGUUGCCGCUUCAGACAGUACUGCUGGAAUUCUCGGGUGCCAA,0.252
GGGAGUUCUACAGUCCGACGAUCCCAGGUUGGAGCUUAAAUUGCUGUUGGCUCCUGCCUGGUGGAACAAGGGGGUCAUAGAAACCAGGGCUGAUGGGCACCCCCCAGCCCCUGGGAGCUCUGCUCAUGACCGCUGGAAUUCUCGGGUGCCAA,0.408
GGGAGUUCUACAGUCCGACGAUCUUUGUGCAAACUCUGUAAAUAUGUGUUUAAACAAAUGUAAUAUUUUGUACAAGAUACACUGGAGAACAAAGGGAACUCAAGAUUCUUCCAGCCACAUGUCACCUGUAGGUUGGAAUUCUCGGGUGCCAA,0.279
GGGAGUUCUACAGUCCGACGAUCGAAGCCUGUUGUACAGAUUUAGAGUCUUACAAUAUGAGGGAAGUUGGUUCUGGGAAGGUAAGAUGUAGCCAGUUUUCAUCUGGGCACCUCUGAAAGAGAAGGAGUGCAGGUGGAAUUCUCGGGUGCCAA,1.07

# Series 5 — method: protein-binding microarray; form: double-stranded DNA, one strand shown; sample: in vitro; tested at: 250 nM; setting: 60-bp whole probe; with: salmon DNA 0.4 mg/ml; relative to: random background probes; reading: higher = stronger binding; all sequences stand within: GCCTAGCAC … GTCTTGATTCGCTTGACGCTGCTG
# Target: Interferon regulatory factor 5, full length, phosphomimetic (IRF5, Homo sapiens, UniProt Q13568-2, residues 1-514, K96S/S451D/S453D/S456D/S462D)
Strand,log fluorescence [z-score]
GACGGTTTCCTTCTCCAGACGTGCTAG,0.894
TCAGATATCAGTCTCGATTAGTGCTAG,1.97
TTAGGTTCCGGTATCGGTTAGTGCTAG,6.49
TTTTCATTTTCTTTAACTCAGTGCTAG,3.72
GACGATTCCAGTTTAGAGACGTGCTAG,0.0525
GACGGGATCGGTCTCGGGACGTGCTAG,-0.308
TTTGCTTTCTTTATGTACTCGTGCTAG,2.81
GACGGGTCCGGTTTCGGGACGTGCTAG,2.32
TTAGATCTCGGTATCGATTAGTGCTAG,4.96
GACGGTTTCCTTTCCCTGGCGTGCTAG,1.3
GACGGTTTCGGTCTAGGGACGTGCTAG,9.65
TCAACACTGGTTTTTACACTGTGCTAG,0.398
GACGGACAGCTTTTCCTGACGTGCTAG,-0.239
GACGGTATCGGGTTTCGGAACGTGCTA,5.19
AGCATCTTCAAGACTCATAATGTGCTA,0.376
GTTCTTTTCTGTTGTCTGTGTGTGCTA,2.46
TCAGTCTTGGTTCTCAGACTGTGCTAG,-0.0874
GACGGTTTCGGGTATCGGGCCGTGCTA,7.75
TTAGATCTCATTTTCGATTAGTGCTAG,6.92
CTGACCTTTTCCTGAGGCAGGTGCTAG,0.124
GACGAATTCAGTTTCGAGACGTGCTAG,6.46
GACGAACTGGGTATCGGGACGTGCTAG,0.526

# A few entries again (series 4):
Strand,RBNS enrichment (R)
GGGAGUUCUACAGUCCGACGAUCGACUGGUCUUCAGGAGUCAGUAGACCACCGGACCAGGUGUCAGCAUCCACUCCAAGCCAUGCUAGGAAUCUGCCCCCUGCCGGGUUCAGCUCUUUAAGGUGCCUCUUCAGUGGAAUUCUCGGGUGCCAA,0.255
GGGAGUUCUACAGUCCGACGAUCCUUAUCAAAAUACAGAUCAUUAUUGCAUAUAUGCAAAUUCUGUUUUAUUUUAUCCCUAAUAACAGAAGUCUCCCUUCCAUGGUUUUAGCGUUGCCUUUUUAAAAAGGCACUGGAAUUCUCGGGUGCCAA,0.491
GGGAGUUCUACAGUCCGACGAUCGCAGCUUUUUAUGGUGUUUAAUCUAAUACACUUAAGCUGCAGUCCCAAAACUAGGGGUCCGUCAGUCUUGGAGACUAUGGGAGCCUCUGCACCCAGGGAAAAUGUUACCCUGGAAUUCUCGGGUGCCAA,0.631
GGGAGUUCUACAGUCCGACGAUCUACAUUUAUUUCCCCCUGAUGUGGAAAAUCUAAAAGCACAGAAUGAUGGGAACAAGAGUAUGAUGUGCUUGGUAUCUGGCUUUUCCCCAAGCAGUCGAUGUCAAGGUUACUGGAAUUCUCGGGUGCCAA,2.82
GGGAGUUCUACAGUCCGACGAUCGUGGCCACUGAAGUCUCAGGUGCAGAUGGGUUCUCCCGGGAACCCAGGGUUGGAUCCAUAAGGCUUUAAUCUGGCCCUGAAAGCAGUGUUGCCGCUUCAGACAGUACUGCUGGAAUUCUCGGGUGCCAA,0.252
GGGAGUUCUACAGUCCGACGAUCCAGGCUCUUGUCUGAACACCGCAGCCCCUCCUUCGCUCCUUCCAGAGCUCAGCAUGUCACGGCAAGGACUGCCGCAUUGGUGAUGGAGGGCCAGCUGAGGGGAAGUUGCUUGGAAUUCUCGGGUGCCAA,19.5
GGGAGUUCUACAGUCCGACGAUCUGUUGGUGAACAAAUGGCCUUUAUUAAGAAAUGGCUGGCUCAGGGUAAGGUCCGAUUCCUACCAGGAAGUGCUUGCUGCUUCUUUGAUUAUGACUGGUUUGGGGUGGGGGUGGAAUUCUCGGGUGCCAA,0.457
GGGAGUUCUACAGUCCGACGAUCAACAUUUUUGGAGGUAGCUUCGUGCAUCAUAAACAACUUUCGUGCUCGUGUCUGACUCGAGCGGUAUCAGAACAGGGCUGGGAUGGAGUCUUCGUGUUUUGCACCCUGUGUGGAAUUCUCGGGUGCCAA,1.91
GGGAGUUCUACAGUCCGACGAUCUUUGUGCAAACUCUGUAAAUAUGUGUUUAAACAAAUGUAAUAUUUUGUACAAGAUACACUGGAGAACAAAGGGAACUCAAGAUUCUUCCAGCCACAUGUCACCUGUAGGUUGGAAUUCUCGGGUGCCAA,0.279
